Published values from different studies.
Each line is one published result; not all experiments were run side by side. “And” joins repeats or separate records; there may be more than shown.

| Compound | cell line | assay | conditions | viability |
| --- | --- | --- | --- | --- |
| Cc1cc(Cl)cc(-c2ccnc3cc(CN4C(=O)C5C(C4=O)C5(C)C)sc23)c1C[C@@H]1CNCCO1 (stereo partly drawn) | CAPAN-1 | cell growth or viability, SRB | 20 µM, 5 days | 0.381% and 0.161% and 0.223% |
| CN1CCCNC(=O)c2cccc(c2)C(=O)NCCCN(C)CCCNc2cccc3c2C(=O)c2cccc(c2C3=O)NCCC1 | SAS | cell growth or viability, CCK-8 | 1.5 µM, 48 h | 34.2% |
| COc1ccc(Cn2cc(CO[C@@H]3O[C@H]4[C@H](OC[C@H]4O)[C@H]3N=[N+]=[N-])nn2)cc1 | SU-DHL10 | cytotoxicity, CellTiter-Glo | up to 30 µM, 72 h | not toxic |
| COc1cc2c(cc1OC)[C@@H]1C(=O)c3c(O)cc4c(c3O[C@@H]1CO2)C=CC(C)(C)O4 | SW480 | cell growth or viability, MTT | 100 µg/mL | 77.5% |
| O=C(c1ccc(C(=O)N2CCC(N3CCCC3)CC2)cc1)N1CCC(N2CCCC2)CC1 | HEK-293T/17 | CellTiter-Glo | up to 100 µM, 24 h | not toxic |
| COc1cc(N2CCN(C(=O)CN)CC2)ccc1Nc1ncc(Cl)c(Nc2ccccc2P(C)(C)=O)n1 | NCI-H3122 | cell growth or viability, CCK-8 | 0.5 µM, 48 h | 17% and 14% |
| CO[C@H]1C=C[C@@H](OC(=O)c2ccccc2)[C@H](O)[C@@]1(O)COC(=O)c1ccccc1 | SW480 | cell growth or viability, MTT | 100 µg/mL | 65.3% |
| C=C(C)[C@H]1Cc2c(cc(O)c3c2O[C@@H]2COc4cc(OC)c(OC)cc4[C@@H]2C3=O)O1 | SW480 | cell growth or viability, MTT | 100 µg/mL | 94.3% |
| COC1C=CC(OC(=O)C=Cc2ccccc2)C(O)C1(O)COC(=O)c1ccccc1 (single isomer, unassigned; (-)) | SW480 | cell growth or viability, MTT | 100 µg/mL | 65.1% |
| COc1cc(N2CCN(C(=O)CCOCCNC(=O)[C@@H]3CCCN3)CC2)ccc1Nc1ncc(Cl)c(Nc2ccccc2P(C)(C)=O)n1 | NCI-H3122 | CCK-8 | 0.25 µM, 48 h | 67% and 66% and 72% |
| COc1cc2c(cc1OC)-c1c(oc3c4c(cc(O)c3c1=O)OC(C)(C)C=C4)CO2 | SW480 | cell growth or viability, MTT | 100 µg/mL | 76.7% |
| O=C(OC[C@@]1(O)C(=O)C=C[C@H]2[C@@H]1[C@H]1C=C[C@@H]2C(=O)[C@]1(O)COC(=O)c1ccccc1)c1ccccc1 | SW480 | cell growth or viability, MTT | 25 µg/mL | 75.2% |

Excerpt of the above:
| Compound | cell line | assay | conditions | viability |
| --- | --- | --- | --- | --- |
| COc1cc2c(cc1OC)[C@@H]1C(=O)c3c(O)cc4c(c3O[C@@H]1CO2)C=CC(C)(C)O4 | SW480 | cell growth or viability, MTT | 100 µg/mL | 77.5% |
